Measured values collected from several papers.
Numbered parts are unrelated; each lists some results of a single study. Several values in a cell are separate wells, animals, samples, runs or records.
Chain of UniProt P52564 (whole entry, looked up): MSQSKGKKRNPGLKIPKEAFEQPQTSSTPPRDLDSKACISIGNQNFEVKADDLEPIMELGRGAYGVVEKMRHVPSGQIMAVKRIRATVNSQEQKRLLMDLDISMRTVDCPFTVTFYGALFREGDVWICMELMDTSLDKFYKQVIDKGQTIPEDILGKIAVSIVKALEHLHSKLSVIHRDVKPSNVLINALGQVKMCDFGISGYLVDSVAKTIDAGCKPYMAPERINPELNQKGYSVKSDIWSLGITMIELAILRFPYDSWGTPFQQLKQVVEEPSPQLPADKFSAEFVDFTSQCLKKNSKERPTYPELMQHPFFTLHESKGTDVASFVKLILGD
Chain of UniProt P10721 (whole entry, unmodified, looked up): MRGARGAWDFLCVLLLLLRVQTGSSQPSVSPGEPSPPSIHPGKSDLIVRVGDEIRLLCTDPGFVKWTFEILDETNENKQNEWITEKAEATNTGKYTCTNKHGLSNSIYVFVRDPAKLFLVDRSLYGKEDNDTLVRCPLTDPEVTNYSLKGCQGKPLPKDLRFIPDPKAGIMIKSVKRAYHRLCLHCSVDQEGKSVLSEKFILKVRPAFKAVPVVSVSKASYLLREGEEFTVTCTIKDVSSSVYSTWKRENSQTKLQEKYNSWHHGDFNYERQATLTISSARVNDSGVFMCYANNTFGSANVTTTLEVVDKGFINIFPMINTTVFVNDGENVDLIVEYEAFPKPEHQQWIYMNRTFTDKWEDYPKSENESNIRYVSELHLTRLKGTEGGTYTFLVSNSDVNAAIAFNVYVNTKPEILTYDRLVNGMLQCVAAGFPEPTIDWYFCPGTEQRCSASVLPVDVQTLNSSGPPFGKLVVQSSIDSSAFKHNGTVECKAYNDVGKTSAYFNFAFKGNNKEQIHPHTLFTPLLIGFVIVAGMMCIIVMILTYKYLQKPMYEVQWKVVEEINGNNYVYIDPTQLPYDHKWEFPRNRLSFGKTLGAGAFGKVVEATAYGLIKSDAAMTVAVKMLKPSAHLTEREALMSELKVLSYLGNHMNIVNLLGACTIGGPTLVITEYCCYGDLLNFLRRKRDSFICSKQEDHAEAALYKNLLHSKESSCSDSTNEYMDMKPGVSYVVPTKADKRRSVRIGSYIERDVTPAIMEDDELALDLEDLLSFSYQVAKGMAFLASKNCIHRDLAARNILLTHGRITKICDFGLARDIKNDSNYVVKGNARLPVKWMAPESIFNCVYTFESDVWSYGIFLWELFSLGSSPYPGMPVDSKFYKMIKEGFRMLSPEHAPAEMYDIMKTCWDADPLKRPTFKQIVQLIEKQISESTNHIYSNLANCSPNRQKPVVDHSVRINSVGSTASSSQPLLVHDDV
Chain of UniProt P54756 (whole entry, looked up): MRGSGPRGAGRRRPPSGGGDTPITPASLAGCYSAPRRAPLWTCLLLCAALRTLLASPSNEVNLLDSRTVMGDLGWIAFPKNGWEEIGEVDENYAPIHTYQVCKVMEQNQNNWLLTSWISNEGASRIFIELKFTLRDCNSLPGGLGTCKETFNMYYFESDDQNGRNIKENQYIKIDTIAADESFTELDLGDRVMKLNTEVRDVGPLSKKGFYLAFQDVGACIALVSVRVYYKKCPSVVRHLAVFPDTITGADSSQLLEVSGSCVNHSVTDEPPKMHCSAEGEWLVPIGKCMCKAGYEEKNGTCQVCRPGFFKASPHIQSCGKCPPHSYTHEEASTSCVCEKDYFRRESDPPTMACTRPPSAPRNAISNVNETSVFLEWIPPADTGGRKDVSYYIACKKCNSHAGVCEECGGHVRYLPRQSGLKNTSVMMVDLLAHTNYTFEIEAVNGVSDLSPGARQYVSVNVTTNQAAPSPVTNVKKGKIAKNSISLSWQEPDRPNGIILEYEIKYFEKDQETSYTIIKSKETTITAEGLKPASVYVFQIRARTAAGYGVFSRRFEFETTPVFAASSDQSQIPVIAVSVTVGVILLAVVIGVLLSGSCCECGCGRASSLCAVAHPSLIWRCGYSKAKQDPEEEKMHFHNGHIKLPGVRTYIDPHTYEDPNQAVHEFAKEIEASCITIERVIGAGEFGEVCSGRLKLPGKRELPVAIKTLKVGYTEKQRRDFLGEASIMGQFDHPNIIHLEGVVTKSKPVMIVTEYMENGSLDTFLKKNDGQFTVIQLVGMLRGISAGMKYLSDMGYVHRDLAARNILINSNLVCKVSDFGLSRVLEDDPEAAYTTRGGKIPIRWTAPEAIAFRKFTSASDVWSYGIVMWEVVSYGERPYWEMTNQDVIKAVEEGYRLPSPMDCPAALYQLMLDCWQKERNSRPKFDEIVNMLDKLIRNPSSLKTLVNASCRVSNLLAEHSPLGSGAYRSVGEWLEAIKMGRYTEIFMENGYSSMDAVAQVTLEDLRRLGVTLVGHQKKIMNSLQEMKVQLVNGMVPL
Chain of UniProt Q96BR1 (whole entry, looked up): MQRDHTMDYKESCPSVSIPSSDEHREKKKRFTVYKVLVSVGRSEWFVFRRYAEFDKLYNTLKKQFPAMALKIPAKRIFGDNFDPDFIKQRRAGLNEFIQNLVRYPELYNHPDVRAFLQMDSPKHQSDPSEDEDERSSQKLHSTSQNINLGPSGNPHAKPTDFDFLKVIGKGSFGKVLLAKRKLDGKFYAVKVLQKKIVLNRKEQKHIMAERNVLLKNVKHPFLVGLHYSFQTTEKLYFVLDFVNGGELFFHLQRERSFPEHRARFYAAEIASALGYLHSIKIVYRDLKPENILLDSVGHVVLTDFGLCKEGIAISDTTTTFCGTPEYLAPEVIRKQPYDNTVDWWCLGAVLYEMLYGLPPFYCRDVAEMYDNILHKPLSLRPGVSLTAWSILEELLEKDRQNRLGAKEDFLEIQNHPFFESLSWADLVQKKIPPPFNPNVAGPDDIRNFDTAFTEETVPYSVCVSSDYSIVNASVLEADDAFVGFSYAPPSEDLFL
Chain of UniProt Q13976 (whole entry, looked up): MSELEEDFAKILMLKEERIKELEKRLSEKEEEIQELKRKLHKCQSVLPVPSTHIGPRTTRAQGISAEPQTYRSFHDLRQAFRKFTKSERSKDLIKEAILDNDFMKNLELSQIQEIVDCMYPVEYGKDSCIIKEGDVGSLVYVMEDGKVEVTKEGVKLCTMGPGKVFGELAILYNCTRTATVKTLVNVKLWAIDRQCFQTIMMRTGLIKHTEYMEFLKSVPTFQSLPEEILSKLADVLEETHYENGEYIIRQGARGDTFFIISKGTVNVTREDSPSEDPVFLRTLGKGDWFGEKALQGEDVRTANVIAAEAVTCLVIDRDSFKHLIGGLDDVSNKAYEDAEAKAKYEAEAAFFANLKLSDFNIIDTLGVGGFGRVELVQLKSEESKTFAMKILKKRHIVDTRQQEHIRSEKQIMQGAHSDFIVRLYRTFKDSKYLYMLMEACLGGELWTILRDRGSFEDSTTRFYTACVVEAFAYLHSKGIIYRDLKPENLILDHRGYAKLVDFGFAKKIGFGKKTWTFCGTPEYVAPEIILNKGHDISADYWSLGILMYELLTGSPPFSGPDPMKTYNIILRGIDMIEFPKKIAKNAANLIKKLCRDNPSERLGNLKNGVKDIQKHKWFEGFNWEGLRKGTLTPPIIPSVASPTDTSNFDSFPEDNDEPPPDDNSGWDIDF
Chain of UniProt P68400 (whole entry, looked up): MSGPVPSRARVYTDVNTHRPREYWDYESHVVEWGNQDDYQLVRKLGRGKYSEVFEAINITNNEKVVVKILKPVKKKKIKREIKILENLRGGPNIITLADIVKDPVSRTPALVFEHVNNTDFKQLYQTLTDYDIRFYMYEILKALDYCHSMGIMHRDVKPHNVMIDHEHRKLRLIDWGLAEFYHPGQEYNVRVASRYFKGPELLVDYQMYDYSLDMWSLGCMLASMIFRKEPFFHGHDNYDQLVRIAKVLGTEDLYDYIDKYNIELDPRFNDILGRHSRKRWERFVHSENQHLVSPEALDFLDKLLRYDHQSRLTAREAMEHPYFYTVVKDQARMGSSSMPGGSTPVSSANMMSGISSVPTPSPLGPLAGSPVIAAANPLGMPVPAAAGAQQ
Chain of UniProt P50750 (whole entry, looked up): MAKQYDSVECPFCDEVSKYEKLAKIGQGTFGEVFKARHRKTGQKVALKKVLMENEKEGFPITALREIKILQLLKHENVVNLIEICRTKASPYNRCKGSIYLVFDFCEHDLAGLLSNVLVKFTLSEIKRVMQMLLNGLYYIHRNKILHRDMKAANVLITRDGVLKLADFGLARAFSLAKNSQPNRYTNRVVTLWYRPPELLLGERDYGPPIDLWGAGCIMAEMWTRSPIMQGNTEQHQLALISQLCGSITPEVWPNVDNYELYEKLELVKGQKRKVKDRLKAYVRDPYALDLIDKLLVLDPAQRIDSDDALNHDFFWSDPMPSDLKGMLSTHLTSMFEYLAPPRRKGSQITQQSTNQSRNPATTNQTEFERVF

Series 1
Cell line: mouse MPNST tumor cells
Method: high-content nuclear imaging
Refers to: cell number
Tested at: 10 µM
Time: 12 h
Setting: mean of 2 replicates
Relative to: plate mean
Reading: higher = more cells
Measurement: nuclei count
N=C(N)SCCc1ccc(OCc2ccc([N+](=O)[O-])cc2)cc1: -2.24 z-score
CC(=O)OCC(=O)[C@@]12OC3(CCCC3)O[C@@H]1C[C@H]1[C@@H]3CCC4=CC(=O)C=C[C@]4(C)[C@@]3(F)[C@@H](O)C[C@@]12C: 1.67 z-score
CC(CNC1CCCCC1)OC(=O)c1ccccc1 (centres unmarked): 0.38 z-score
O=C(CN1C2=NCCN2c2ccccc21)c1ccc(-c2ccccc2)cc1: -4.52 z-score
C[C@]12C=CC(=O)C=C1CC[C@@H]1[C@@H]2C(=O)C[C@@]2(C)[C@H]1CC[C@]2(O)C(=O)CO: -0.0588 z-score
O=C1O[C@H]([C@@H](O)CO)C(O)=C1O: -0.121 z-score
Nc1ccccc1NC(=O)c1ccc(CNC(=O)OCc2cccnc2)cc1: -0.304 z-score
O=c1[nH]c(=O)n([C@H]2C[C@H](O)[C@@H](CO)O2)cc1I: 4.94 z-score
CC(C)(C)c1ccc(C(O)CCCN2CCC(C(O)(c3ccccc3)c3ccccc3)CC2)cc1 (centres unmarked): -7.38 z-score
N#Cc1cccc(-c2nc(-c3cccnc3)no2)c1: -0.929 z-score
CC1CC(OC(=O)C(O)c2ccccc2)CC(C)(C)C1 (centres unmarked): 0.778 z-score
NNc1nncc2ccccc12: 0.344 z-score
C#C[C@]1(OC(C)=O)CC[C@H]2[C@@H]3CCC4=C[C@@H](OC(C)=O)CC[C@@H]4[C@H]3CC[C@@]21C: 0.148 z-score
Nc1nc(N)c2nc(-c3ccccc3)c(N)nc2n1: 0.486 z-score and -0.363 z-score
C1CNCCN1: 1.79 z-score
Cn1c(=O)c2c(nc(N3CCNCC3)n2Cc2nnc(-c3ccc(Cl)c(Cl)c3)o2)n(C)c1=O: 2.2 z-score
CCc1c(C(=O)NCCc2ccc(N3CCCCC3)cc2)[nH]c2ccc(Cl)cc12: 3.99 z-score

Series 2
Structure (SMILES): c1ccc2c(-c3ccncc3)c[nH]c2c1
Read-out: enzyme activity
Mode: inhibitor
Tested at: 0.5 µM
Relative to: control
Measurement: remaining activity
Mitogen-activated protein kinase 12 (MAPK12, Homo sapiens, UniProt P53778): 104%
Mitogen-activated protein kinase 13 (MAPK13, Homo sapiens, UniProt O15264): 123%
Serine/threonine-protein kinase 38 (STK38, Homo sapiens, UniProt Q15208): 109%
RAC-gamma serine/threonine-protein kinase (AKT3, Homo sapiens, UniProt Q9Y243): 101%
Leucine-rich repeat serine/threonine-protein kinase 2 (LRRK2, Homo sapiens, UniProt Q5S007): 92.8%
Casein kinase II subunit alpha (CSNK2A1, Homo sapiens, UniProt P68400): 95%
Casein kinase I isoform alpha (CSNK1A1, Homo sapiens, UniProt P48729): 100%
Protein kinase C iota type (PRKCI, Homo sapiens, UniProt P41743): 82.4%
Cyclin-dependent kinase 9, with cyclin T1 (CDK9, Homo sapiens, UniProt P50750): 75.2%
Serine/threonine-protein kinase PLK2 (PLK2, Homo sapiens, UniProt Q9NYY3): 99.9%
MAP kinase-interacting serine/threonine-protein kinase 2 (MKNK2, Homo sapiens, UniProt Q9HBH9): 39.2%
cGMP-dependent protein kinase 1 (PRKG1, Homo sapiens, UniProt Q13976): 64.8%
Tyrosine-protein kinase BTK (BTK, Homo sapiens, UniProt Q06187): 104%
Mitogen-activated protein kinase kinase kinase 10 (MAP3K10, Homo sapiens, UniProt Q02779): 101%
Serine/threonine-protein kinase Chk1 (CHEK1, Homo sapiens, UniProt O14757): 104%
Tyrosine-protein kinase Lyn (LYN, Homo sapiens, UniProt P07948): 102%
Protein kinase C delta type (PRKCD, Homo sapiens, UniProt Q05655): 83.2%
Mitogen-activated protein kinase kinase kinase kinase 2 (MAP4K2, Homo sapiens, UniProt Q12851): 101%
Mast/stem cell growth factor receptor Kit (KIT, Homo sapiens, UniProt P10721): 93.2%
Interleukin-1 receptor-associated kinase 4 (IRAK4, Homo sapiens, UniProt Q9NWZ3): 109%
Serine/threonine-protein kinase Nek4 (NEK4, Homo sapiens, UniProt P51957): 95.4%
Ephrin type-A receptor 5 (EPHA5, Homo sapiens, UniProt P54756): 99.4%
Dual specificity mitogen-activated protein kinase kinase 6 (MAP2K6, Homo sapiens, UniProt P52564): 106%
Serine/threonine-protein kinase WNK2 (WNK2, Homo sapiens, UniProt Q9Y3S1): 96.9%

Series 3
Target: Calcium/calmodulin-dependent protein kinase type II subunit alpha (CAMK2A, Homo sapiens, UniProt Q9UQM7)
Chain of UniProt Q9UQM7 (whole entry, looked up): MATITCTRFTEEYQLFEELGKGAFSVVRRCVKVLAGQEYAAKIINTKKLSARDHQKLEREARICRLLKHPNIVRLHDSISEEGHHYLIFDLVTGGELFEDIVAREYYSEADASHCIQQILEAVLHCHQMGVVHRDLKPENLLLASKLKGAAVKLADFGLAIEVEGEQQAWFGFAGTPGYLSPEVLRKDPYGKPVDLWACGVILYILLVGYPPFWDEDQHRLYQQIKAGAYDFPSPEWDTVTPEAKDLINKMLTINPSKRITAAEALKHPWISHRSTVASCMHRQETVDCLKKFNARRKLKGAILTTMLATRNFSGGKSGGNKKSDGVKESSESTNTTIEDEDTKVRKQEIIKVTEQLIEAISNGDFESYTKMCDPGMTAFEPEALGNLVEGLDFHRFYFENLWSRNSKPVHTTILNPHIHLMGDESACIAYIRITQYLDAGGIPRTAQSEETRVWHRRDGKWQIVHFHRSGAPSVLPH
Read-out: enzyme activity
Mode: inhibitor
Tested at: 10 µM
Measurement: inhibition
Clc1ccc(C(Cn2ccnc2)OCc2c(Cl)cccc2Cl)c(Cl)c1 (centres unmarked): -10%
CC1=C(O)C(=O)C(C)O1 (centres unmarked): -1%
CN(C)CCCOc1nn(Cc2ccccc2)c2ccccc12: -4%
CC(C)CCC[C@@H](C)[C@H]1CC[C@H]2[C@@H]3CC(=O)[C@H]4C[C@@H](O)CC[C@]4(C)[C@H]3CC[C@]12C: -7%
CC(C)=CC(=O)C[C@H](C)c1ccc(C)cc1: -7%
COc1cc2c(cc1O)CC[C@@H]1[C@@H]2CC[C@]2(C)C(=O)CC[C@@H]12: 6%
CC(=O)OC[C@H](Cc1ccccc1)NC(=O)[C@H](Cc1ccccc1)NC(=O)c1ccccc1: -25%
O=c1cc(-c2ccccc2)oc2c(O)c(O)cc(O)c12: -24%
O=C(Nc1ccccc1)c1ccccc1O: -2%

Series 4
Structure (SMILES): CCCCN(CCCC)C(=O)CN1C[C@H](c2cc(OC)c3c(c2)OCO3)[C@@H](C(=O)O)[C@@H]1CC(C)(C)CCC
Method: competition with immobilised ligand
Tested at: 1 µM
Measurement: remaining binding
Activated CDC42 kinase 1 (TNK2, Homo sapiens, UniProt Q07912); cell-free assay: 100%
Dual specificity protein kinase CLK3 (CLK3, Homo sapiens, UniProt P49761); cell-free assay: 100%
Tyrosine-protein kinase JAK1, JH2 (JAK1, Homo sapiens, UniProt P23458); cell-free assay: 84.7%
Serine/threonine-protein kinase Sgk3 (SGK3, Homo sapiens, UniProt Q96BR1); cell-free assay: 75.7%
Mast/stem cell growth factor receptor Kit (KIT, Homo sapiens, UniProt P10721, D816H); cell-free assay: 67.3%
Calcium/calmodulin-dependent protein kinase type 1G (CAMK1G, Homo sapiens, UniProt Q96NX5); cell-free assay: 100%
Cyclin-dependent kinase 14 (CDK14, Homo sapiens, UniProt O94921); cell-free assay: 100%
SRSF protein kinase 3 (SRPK3, Homo sapiens, UniProt Q9UPE1); cell-free assay: 100%
Myosin light chain kinase family member 4 (MYLK4, Homo sapiens, UniProt Q86YV6); cell-free assay: 99.1%
Casein kinase I isoform gamma-3 (CSNK1G3, Homo sapiens, UniProt Q9Y6M4); cell-free assay: 100%
Phosphatidylinositol 4,5-bisphosphate 3-kinase catalytic subunit beta isoform (PIK3CB, Homo sapiens, UniProt P42338); cell-free assay: 56.9%
Receptor-interacting serine/threonine-protein kinase 1 (RIPK1, Homo sapiens, UniProt Q13546); cell-free assay: 100%
Insulin receptor (INSR, Homo sapiens, UniProt P06213); cell-free assay: 75.8%
Dual specificity mitogen-activated protein kinase kinase 6 (MAP2K6, Homo sapiens, UniProt P52564); cell-free assay: 100%
Bone morphogenetic protein receptor type-1A (BMPR1A, Homo sapiens, UniProt P36894); binding: 86.9%
Serine/threonine-protein kinase WNK3 (WNK3, Homo sapiens, UniProt Q9BYP7); cell-free assay: 100%
eIF-2-alpha kinase GCN2, C-terminal kinase domain (EIF2AK4, Homo sapiens, UniProt Q9P2K8, S808G); cell-free assay: 100%
Serine/threonine-protein kinase PAK 6 (PAK6, Homo sapiens, UniProt Q9NQU5); cell-free assay: 100%
Casein kinase I isoform gamma-2 (CSNK1G2, Homo sapiens, UniProt P78368); cell-free assay: 100%
Calcium/calmodulin-dependent protein kinase type II subunit gamma (CAMK2G, Homo sapiens, UniProt Q13555); cell-free assay: 100%
Protein kinase C epsilon type (PRKCE, Homo sapiens, UniProt Q02156); cell-free assay: 100%
